Measured values from different studies.
Parts stem from different laboratories: compare values within a part only.
UniProt O15294, sequence (whole entry, looked up): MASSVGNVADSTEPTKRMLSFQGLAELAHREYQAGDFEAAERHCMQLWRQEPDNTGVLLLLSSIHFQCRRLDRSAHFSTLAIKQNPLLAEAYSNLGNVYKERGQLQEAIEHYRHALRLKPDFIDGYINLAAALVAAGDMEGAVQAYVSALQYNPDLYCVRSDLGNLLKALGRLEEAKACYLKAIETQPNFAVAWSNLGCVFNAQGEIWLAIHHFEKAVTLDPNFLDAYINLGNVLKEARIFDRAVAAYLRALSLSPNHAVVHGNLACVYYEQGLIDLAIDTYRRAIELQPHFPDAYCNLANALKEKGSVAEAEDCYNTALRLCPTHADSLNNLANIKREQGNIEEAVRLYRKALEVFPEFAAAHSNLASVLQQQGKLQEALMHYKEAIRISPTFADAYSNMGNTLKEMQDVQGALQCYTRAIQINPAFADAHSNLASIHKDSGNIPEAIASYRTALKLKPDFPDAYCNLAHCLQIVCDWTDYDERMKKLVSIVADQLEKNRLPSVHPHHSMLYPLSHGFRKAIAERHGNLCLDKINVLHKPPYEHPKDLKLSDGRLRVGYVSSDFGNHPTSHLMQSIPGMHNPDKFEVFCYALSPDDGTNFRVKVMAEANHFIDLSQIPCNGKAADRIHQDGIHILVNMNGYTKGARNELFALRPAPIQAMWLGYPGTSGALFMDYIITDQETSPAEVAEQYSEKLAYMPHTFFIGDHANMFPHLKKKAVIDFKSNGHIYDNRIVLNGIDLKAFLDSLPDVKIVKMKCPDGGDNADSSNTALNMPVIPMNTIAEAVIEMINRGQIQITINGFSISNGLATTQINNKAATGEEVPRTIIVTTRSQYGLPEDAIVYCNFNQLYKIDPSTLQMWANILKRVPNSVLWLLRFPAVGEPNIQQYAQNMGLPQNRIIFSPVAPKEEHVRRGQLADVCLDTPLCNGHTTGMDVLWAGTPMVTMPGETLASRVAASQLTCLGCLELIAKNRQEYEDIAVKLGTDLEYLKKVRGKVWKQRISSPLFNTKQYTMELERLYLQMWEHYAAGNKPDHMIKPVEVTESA

Series 1
Target: Probable WRKY transcription factor 33, C-terminal DNA-binding domain (WRKY33, Arabidopsis thaliana, UniProt Q8S8P5, residues 346-449)
Method: DNA-protein interaction ELISA
Molecule type: double-stranded DNA, one strand shown
Matrix: in vitro, bacterial lysate
Tested at: not given
Setting: whole dsDNA probe, crude lysate protein
Reference: highest signal in screen
Reading: higher = stronger binding
Target sequence (chain): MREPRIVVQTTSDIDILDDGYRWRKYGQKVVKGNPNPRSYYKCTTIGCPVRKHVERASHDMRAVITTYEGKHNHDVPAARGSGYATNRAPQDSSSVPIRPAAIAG
Strand | relative absorbance
AAAAAAAAATGCTAGCGCGTACGTAAAAAA | 43.4 % of maximum
AAAAAAACGCTCAAGTCTATCAGTAGAAAA | 70 % of maximum
AAAAAAGGCCACGGTAACCCCTTTTGAAAA | 35 % of maximum
AAAAAAGGGCGAGCGCTGGATCCACAAAA | 52.2 % of maximum
AAAAAATTGCCGTCATAATTGTGGTAAAAA | 26.9 % of maximum
AAAAAACATCGCTGTCGTTGACGTTGAAAA | 99.6 % of maximum
AAAAAAGGTAGTCACATTACGAGGGTAAAA | 39.1 % of maximum
AAAAAACCCGCCGTCGTGATTATCACAAAA | 28.3 % of maximum

Series 2
Target: Centromere-binding protein 1, full length, His-tagged (CBF1, Saccharomyces cerevisiae, UniProt P17106, residues 1-351)
UniProt P17106, sequence (whole entry, looked up): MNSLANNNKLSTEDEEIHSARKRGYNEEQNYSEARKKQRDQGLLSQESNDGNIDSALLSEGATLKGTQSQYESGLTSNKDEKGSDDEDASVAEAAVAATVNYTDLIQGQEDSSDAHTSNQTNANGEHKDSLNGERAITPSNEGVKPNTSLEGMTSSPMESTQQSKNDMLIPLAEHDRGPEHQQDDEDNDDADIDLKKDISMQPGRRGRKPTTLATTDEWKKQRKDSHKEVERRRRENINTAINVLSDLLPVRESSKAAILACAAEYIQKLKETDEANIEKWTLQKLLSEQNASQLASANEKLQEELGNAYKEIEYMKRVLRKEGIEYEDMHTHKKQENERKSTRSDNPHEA
Method: competition protein-binding microarray
Molecule type: double-stranded DNA, one strand shown
Matrix: in vitro
Tested at: 2 µM
Setting: whole 60-bp probe, lowest competitor level
Together with: Pho4 competitor, 0.05 µM
Reading: higher = stronger binding
All sequences stand within: … GTCTTGATTCGCTTGACGCTGCTG
Strand | fluorescence intensity
TTCTTCCAACACCGACACGTTGTTCTCGCTCTCTTC | 76.8 a.u.
GGAGTTGATGTGTCTAGTGTGACAGGTTCATTTGCC | 85.7 a.u.
CGTCCTAGTGATTGTATTGTGGGTGCCATGAGGAAG | 99.5 a.u.
GACCTCGTTATGGACAACGTGGTCGCTAGGGGTGGT | 138 a.u.
AAAGTAGCATTCCGTTACGTGATGGGTACTTTAACC | 97.7 a.u.
AAATTACTAAGTTTTCACGTGTAATACCCCGTATGA | 781 a.u.
CTTTCCCGATCTTGAGTGGTGGGTGTAGCACATTTG | 66.3 a.u.
CTAACGAAGGTTTTTCACGTGGCTTACAAGCCAAGT | 938 a.u.

Series 3
Target: RING finger protein unkempt homolog, zinc fingers 1-6, GST-SBP tag (UNK, Homo sapiens, UniProt Q9C0B0, residues 30-357)
UniProt Q9C0B0, sequence (30-357, looked up): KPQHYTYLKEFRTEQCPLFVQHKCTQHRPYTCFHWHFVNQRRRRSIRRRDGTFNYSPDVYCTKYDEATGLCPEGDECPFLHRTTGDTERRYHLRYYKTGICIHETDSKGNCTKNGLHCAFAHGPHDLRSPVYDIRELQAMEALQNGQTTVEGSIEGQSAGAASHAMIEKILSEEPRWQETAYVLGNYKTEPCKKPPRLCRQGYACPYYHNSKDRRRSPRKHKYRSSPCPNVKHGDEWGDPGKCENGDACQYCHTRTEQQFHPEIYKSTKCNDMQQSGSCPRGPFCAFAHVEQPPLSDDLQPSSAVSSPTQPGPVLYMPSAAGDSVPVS
Method: RNA Bind-n-Seq
Molecule type: RNA
Matrix: in vitro
Tested at: not given
Setting: RNA with constant flanks, human-mouse chimeric sites, ends assumed
Reference: input RNA pool
Reading: higher = stronger binding
All sequences stand within: GGGAGUUCUACAGUCCGACGAUC … CAACAGAGGAUUGAGCAUCA
Strand | bound/input enrichment
CGCUGGCCCAAGCUGAUGUAAAUGUUUGGCCUCCAUCUCUCAGGCACGUGUGCCUUCUCUUAGUCCCUGUUUUCGGGAUGUUAUGAAUCUCAGUACUGUUUGACAGAAGCACCAGCUUUG | 0.166 ratio
CUUUUUAAGAAGAUAUGUGAUGGGAUCUUUUAUACCCCUCAGUACUUAAAUCCUUCUGUAAUCAGCCUUUUGAAACAUAUGCUGCAGGUGGAUCCCAUGAAGAGGGCCGCAAUAAAAGAU | 0.326 ratio
CGGAGCCCUCCUCUCCCCCAGGCCCGAGAUAUAACCCACCAGUGCCUUUUGUCUUCCUGUCAGCUCUGUCAAUCACGGCCCUGCCUUCACGCCCACACCAAGUGCCCAAAGUGGGGAGGG | 0.696 ratio
AAAUCAUGUGUGUCCAAUAUUGAAAGUGCUUUAUCUACACUCCAGUAUGUAAGCAGCAUAGUAGUUUCUUUAGAGAAUAGGUCAGCCAUUGUAAAGUACAAUGCAAGCUUAGUCACUCCA | 9.1 ratio
UAAGUUAUUUUGUACAGCUUUGUAAAUUCUUAACAUUUUUAUAUUGCCAUGUUUAUUUUGUUUGGGUAAUUUGGUUCAUACAUGGCCUAGCUAAGGUACAUCUUUCAUUUUUCAGUAAUU | 3.54 ratio
UAAGUUAAGCUUUUAAUCUUUGUAAAUUCUUAACAUUUUUAUAUUGCCAUGUUUAUUUUGUUUGGGUGCUUUAUUAAAUUAAGUACAUAGCUAAGGUAAUGAACAUCUUUUUCAGUAAUU | 0.637 ratio
AGUUCCAGAACCAGAAUAGAAAUGAAGAUGAGAUUACCCAGACGAGCCAAAACAGCUGCGCUACAGAAAAGUAAACUUAACCUUGCAGAGUUCCUUAAUGAAGAUACAAGUUAAGAGAGC | 0.245 ratio
AUUGUUGAAGCUAACCCACUUUUAGAAGCAUUUGGAAAUGCAAAGACUGUUCGCAACAAUAAUAGCAGUCGAUUUGGAAAAUUUGUAGAAAUACAUUUCAAUGAAAAGAGUUCGGUUGUU | 0.371 ratio

Mixed results
Molecule | target | test | system | conditions | scale | quantity | result
VDTWHQRHHHQFSVD | UDP-N-acetylglucosamine--peptide N-acetylglucosaminyltransferase 110 kDa subunit (OGT, Homo sapiens, UniProt O15294) | binding, phage display NGS | peptide | panning round 2 | reference: input library | minimum log2 enrichment ratio | 2.39

Excerpt of the above (series 2):
Strand | fluorescence intensity
CTAACGAAGGTTTTTCACGTGGCTTACAAGCCAAGT | 938 a.u.
